# Measured values collected from several papers.
# Each numbered part is a random draw from the data of one study; scales do not carry over between parts. Values joined by “and” are separate records of one study, mostly repeats; a detail may differ.
# UniProt Q9Y6M4, sequence (whole entry, looked up): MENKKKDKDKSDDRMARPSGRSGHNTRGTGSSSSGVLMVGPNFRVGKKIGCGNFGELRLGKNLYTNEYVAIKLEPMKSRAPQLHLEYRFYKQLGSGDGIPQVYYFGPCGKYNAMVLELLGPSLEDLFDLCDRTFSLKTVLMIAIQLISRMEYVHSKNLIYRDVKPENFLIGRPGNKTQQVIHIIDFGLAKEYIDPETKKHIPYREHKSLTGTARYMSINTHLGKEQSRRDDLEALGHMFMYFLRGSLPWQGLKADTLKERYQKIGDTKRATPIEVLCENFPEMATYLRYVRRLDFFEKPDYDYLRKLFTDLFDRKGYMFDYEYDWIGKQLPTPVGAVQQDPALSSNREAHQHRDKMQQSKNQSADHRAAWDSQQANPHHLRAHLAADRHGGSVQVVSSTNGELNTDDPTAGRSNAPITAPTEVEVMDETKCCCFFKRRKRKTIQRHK
# UniProt P23443, sequence (whole entry, looked up): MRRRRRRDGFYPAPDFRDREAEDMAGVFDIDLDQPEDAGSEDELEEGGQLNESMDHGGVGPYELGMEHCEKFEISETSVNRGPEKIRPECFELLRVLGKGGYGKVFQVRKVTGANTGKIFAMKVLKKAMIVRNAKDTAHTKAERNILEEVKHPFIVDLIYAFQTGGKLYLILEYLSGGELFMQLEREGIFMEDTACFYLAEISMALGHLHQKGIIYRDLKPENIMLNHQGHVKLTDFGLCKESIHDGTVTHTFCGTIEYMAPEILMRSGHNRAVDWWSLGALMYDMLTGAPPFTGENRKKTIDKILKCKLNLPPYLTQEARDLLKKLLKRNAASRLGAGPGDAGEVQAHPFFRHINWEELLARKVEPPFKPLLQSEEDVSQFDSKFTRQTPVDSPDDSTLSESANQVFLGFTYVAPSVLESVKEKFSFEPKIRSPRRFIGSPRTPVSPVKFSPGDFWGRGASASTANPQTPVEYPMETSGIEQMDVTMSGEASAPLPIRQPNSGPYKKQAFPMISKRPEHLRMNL
# UniProt Q8IYT8, sequence (whole entry, looked up): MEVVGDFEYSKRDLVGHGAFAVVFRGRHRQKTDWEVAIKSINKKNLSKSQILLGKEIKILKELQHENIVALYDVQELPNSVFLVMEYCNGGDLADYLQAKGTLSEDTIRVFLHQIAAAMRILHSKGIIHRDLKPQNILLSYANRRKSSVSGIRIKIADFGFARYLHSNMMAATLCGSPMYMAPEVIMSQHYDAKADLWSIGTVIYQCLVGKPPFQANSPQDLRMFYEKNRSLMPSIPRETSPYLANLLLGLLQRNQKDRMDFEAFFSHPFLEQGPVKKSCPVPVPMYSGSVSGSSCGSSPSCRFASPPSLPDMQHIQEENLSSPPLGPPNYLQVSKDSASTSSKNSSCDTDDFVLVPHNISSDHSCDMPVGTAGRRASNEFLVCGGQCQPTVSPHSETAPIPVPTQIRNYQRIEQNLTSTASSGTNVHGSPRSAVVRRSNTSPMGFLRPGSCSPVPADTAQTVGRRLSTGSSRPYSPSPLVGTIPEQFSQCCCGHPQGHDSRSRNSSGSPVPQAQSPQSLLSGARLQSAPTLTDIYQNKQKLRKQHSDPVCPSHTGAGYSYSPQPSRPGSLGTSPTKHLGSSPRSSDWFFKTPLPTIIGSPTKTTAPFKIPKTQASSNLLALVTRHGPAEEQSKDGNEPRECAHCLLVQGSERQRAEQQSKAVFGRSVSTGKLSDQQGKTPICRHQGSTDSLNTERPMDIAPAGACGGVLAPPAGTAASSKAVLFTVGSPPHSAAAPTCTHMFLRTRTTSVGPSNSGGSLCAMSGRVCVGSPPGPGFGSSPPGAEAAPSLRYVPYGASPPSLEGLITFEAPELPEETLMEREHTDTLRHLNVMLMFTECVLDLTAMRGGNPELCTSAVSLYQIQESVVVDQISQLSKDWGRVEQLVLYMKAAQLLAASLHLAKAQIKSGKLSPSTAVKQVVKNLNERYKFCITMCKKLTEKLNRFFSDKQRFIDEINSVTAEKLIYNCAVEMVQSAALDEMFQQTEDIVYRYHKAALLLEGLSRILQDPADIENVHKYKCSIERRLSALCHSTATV
# UniProt P52333, sequence (whole entry, looked up): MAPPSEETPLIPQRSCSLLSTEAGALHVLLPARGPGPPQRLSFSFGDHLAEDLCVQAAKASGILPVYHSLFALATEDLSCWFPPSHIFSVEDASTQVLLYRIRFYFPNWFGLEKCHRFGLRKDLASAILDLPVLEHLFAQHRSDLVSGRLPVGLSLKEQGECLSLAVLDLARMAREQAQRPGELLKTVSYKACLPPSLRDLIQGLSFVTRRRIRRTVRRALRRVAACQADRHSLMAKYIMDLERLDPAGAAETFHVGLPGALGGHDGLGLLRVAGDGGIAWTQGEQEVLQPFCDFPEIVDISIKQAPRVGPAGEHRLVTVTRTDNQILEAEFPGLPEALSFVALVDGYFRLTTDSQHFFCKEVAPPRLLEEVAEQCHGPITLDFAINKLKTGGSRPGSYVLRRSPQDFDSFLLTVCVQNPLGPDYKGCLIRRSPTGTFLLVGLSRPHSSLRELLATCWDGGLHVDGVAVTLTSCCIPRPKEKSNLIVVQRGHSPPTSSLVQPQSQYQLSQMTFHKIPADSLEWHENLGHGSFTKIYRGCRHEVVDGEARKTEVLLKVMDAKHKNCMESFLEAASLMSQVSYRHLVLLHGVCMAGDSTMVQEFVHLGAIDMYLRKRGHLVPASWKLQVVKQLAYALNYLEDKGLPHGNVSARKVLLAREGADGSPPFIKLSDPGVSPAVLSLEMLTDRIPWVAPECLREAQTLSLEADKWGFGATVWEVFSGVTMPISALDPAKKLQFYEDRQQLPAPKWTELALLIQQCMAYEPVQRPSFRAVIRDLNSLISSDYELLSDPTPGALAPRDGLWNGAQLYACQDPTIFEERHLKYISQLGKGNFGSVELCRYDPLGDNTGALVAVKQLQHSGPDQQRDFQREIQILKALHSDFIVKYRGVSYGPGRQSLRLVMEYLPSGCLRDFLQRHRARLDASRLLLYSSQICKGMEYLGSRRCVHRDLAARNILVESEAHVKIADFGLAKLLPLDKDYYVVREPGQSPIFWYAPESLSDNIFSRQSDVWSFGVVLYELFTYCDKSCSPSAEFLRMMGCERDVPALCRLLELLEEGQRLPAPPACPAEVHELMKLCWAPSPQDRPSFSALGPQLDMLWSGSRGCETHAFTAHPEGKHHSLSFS
# UniProt Q96PY6, sequence (whole entry, looked up): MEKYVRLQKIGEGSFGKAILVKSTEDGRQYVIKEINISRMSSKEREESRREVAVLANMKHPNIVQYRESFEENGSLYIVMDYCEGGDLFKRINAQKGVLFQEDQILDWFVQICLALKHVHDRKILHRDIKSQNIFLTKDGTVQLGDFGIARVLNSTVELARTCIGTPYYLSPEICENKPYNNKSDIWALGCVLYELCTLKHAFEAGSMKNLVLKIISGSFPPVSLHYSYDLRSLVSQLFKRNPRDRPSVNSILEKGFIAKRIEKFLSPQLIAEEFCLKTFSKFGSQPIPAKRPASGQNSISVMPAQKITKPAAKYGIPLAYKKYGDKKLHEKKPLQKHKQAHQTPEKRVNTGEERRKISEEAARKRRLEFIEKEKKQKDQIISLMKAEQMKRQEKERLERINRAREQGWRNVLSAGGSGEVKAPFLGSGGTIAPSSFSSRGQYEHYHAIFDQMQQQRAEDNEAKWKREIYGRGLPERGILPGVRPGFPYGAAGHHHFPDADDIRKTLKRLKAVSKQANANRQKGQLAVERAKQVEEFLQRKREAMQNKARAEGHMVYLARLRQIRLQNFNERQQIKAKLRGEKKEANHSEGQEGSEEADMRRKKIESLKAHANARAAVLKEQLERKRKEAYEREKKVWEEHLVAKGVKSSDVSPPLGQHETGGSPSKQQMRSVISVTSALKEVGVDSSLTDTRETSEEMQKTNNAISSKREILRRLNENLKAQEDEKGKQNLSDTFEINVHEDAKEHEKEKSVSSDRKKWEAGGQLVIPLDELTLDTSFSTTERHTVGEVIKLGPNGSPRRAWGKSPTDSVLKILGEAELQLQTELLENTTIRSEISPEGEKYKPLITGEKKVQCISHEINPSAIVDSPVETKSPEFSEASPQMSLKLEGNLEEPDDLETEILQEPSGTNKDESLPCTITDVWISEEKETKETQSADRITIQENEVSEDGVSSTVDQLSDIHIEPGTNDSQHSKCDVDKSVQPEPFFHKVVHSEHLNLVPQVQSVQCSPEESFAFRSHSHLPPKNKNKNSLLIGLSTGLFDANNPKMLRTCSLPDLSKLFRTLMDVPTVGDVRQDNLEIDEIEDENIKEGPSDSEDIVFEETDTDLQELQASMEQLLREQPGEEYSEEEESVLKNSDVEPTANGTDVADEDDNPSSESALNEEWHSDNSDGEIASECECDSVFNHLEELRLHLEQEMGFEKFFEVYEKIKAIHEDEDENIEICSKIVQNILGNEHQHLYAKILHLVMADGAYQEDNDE
# UniProt P50613, sequence (whole entry, looked up): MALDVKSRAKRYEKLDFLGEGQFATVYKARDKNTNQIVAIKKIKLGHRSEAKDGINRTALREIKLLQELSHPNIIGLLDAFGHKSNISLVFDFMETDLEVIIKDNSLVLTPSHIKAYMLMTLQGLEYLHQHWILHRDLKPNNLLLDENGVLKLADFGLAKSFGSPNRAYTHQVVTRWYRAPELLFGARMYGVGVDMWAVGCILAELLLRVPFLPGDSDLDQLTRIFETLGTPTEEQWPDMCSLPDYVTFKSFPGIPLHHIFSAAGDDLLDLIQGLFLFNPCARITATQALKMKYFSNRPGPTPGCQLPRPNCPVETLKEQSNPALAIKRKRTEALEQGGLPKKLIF
# UniProt Q9HC98, sequence (whole entry, looked up): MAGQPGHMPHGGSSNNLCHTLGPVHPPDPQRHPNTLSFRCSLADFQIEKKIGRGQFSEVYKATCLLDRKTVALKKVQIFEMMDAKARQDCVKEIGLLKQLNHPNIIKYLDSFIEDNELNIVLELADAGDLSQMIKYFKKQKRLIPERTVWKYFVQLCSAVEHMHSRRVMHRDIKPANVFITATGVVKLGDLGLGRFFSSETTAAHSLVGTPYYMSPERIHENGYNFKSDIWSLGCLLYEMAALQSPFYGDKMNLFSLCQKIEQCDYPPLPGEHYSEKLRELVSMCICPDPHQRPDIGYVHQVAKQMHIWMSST

# Sample 1
# Organism: Sarcocystis neurona
# Observed: parasite growth
# Tested at: concentration not given
Structure (SMILES),inhibition
O=C1c2c(O)cc(O)cc2OC(c2ccc(O)c(O)c2)C1O (stereo not shown),-2.8%
CN1CCN(c2nc3cc(C(F)(F)F)ccc3n3cccc23)CC1,-6.2%
C[N+]1(C)CCCC(OC(=O)C(O)(c2ccccc2)c2ccccc2)C1.[Br-] (stereo not shown),-14.4%
CC[C@@H]1C(=O)OC[C@@H]1Cc1cncn1C.Cl,-15.4%
C[C@H](N[C@@H](CCc1ccccc1)C(=O)O)C(=O)N1CCC[C@H]1C(=O)O,-0.246%
CN1[C@@H](CC(=O)c2ccccc2)CCC[C@H]1C[C@H](O)c1ccccc1.Cl,-12.9%
CN1CCC(=C2c3ccccc3CCc3sccc32)CC1.O=C(O)/C=C\C(=O)O,-10%
CC[C@@H](CO)NCCN[C@@H](CC)CO,-11.9%
CCOC(=O)c1ccc(OC(=O)CCCCCN=C(N)N)cc1.CS(=O)(=O)O,-5.6%
CCN(CC)C(=O)C1(c2ccccc2)CC1CN.Cl (stereo not shown),-7.9%

# Sample 2
# Structure (SMILES): Cn1cnc(Cn2ccc3ccc(CNCc4[nH]c5ccccc5c4[C@H]4NC(=O)c5ccc(O)cc54)cc32)c1
# Observed: binding
# Mode: competitor
# Method: NanoBRET
# Cell line: HEK293
# KRAS G12C: GTPase KRas (KRAS, Homo sapiens, UniProt P01116, G12C)
target,tested at,time,relative to,normalized BRET
KRAS G12C,82.2 nM,0.5 h,vehicle and 20 µM BI compound,92.8% and 95.5% and 97.3% and 99.9%
KRAS G12C,1.02 nM,3 h,vehicle and 20 µM BI compound,114% and 84.8% and 97.6% and 97.8%
KRAS G12C,9.14 nM,4 h,vehicle and 20 µM BI compound,87.5% and 98% and 83% and 89.6%
KRAS G12C,6.67 µM,3 h,vehicle and 20 µM BI compound,4.66% and 3.68% and 3.82% and 5.23%
"GTPase KRas (KRAS, Homo sapiens, UniProt P01116)",3.05 nM,,,103% and 75% and 90% and 99%
KRAS G12C,1.02 nM,1 h,vehicle and 20 µM BI compound,89.5% and 95.2% and 99.5% and 90.1%
KRAS G12C,3.05 nM,0.5 h,vehicle and 20 µM BI compound,91.7% and 93.3% and 85.1% and 112%

# Sample 3
# SMILES: O=C(O)[C@H]1[C@H](Cn2nnc3ccccc3c2=O)CC[C@@H]1C(=O)c1ccc(OCCC2CCOCC2)cc1
# Observed: cell-free assay
# Method: competition with immobilised ligand
# Tested at: 1 µM
target,remaining binding
"CDK7 (Homo sapiens, UniProt P50613)",95%
"EGFR (Homo sapiens, UniProt P00533, T790M)",77%
"PLK1 (Homo sapiens, UniProt P53350)",75%
"SNRK (Homo sapiens, UniProt Q9NRH2)",95%
"RPS6KB1 (Homo sapiens, UniProt P23443)",100%
"EGFR (Homo sapiens, UniProt P00533, A750P/del747-749)",100%
"AKT3 (Homo sapiens, UniProt Q9Y243)",73%
"PIK3CA (Homo sapiens, UniProt P42336, Q546K)",97%
"MAP2K5 (Homo sapiens, UniProt Q13163)",100%
"PKN2 (Homo sapiens, UniProt Q16513)",76%

# Sample 4
# SMILES: CN1CCN(c2ccc3nc(-c4c(N)c5c(F)cccc5[nH]c4=O)[nH]c3c2)CC1
# Observed: enzyme activity
# Mode: inhibitor
# Tested at: 0.5 µM
# Relative to: control
target,remaining activity [%]
"NEK6 (Homo sapiens, UniProt Q9HC98)",84.5
"GSK3B (Homo sapiens, UniProt P49841)",98.6
"MST1R (Homo sapiens, UniProt Q04912)",95.4
"TBK1 (Homo sapiens, UniProt Q9UHD2)",38.5
"MAPK3 (Homo sapiens, UniProt P27361)",99.6
"CSNK1G2 (Homo sapiens, UniProt P78368)",91.4
"WEE1 (Homo sapiens, UniProt P30291)",92
"TAOK2 (Homo sapiens, UniProt Q9UL54)",97.4
"MAP3K5 (Homo sapiens, UniProt Q99683)",98.4
"ULK3 (Homo sapiens, UniProt Q6PHR2)",66
"EPHA3 (Homo sapiens, UniProt P29320)",88
"ARAF (Homo sapiens, UniProt P10398)",123
"MERTK (Homo sapiens, UniProt Q12866)",92
"FRK (Homo sapiens, UniProt P42685)",56
"JAK3 (Homo sapiens, UniProt P52333)",83.9
"ULK2 (Homo sapiens, UniProt Q8IYT8)",45.7
"MAP2K2 (Homo sapiens, UniProt P36507)",43
"ACVR1B (Homo sapiens, UniProt P36896)",98.8
"RPS6KA2 (Homo sapiens, UniProt Q15349)",13.1
"MAPKAPK2 (Homo sapiens, UniProt P49137)",96.9
"NEK1 (Homo sapiens, UniProt Q96PY6)",64.3
"MAP3K14 (Homo sapiens, UniProt Q99558)",110
"TEK (Homo sapiens, UniProt Q02763)",81.3
"ABL2 (Homo sapiens, UniProt P42684)",24.3
"CSNK1G3 (Homo sapiens, UniProt Q9Y6M4)",94.6

# A few entries again (sample 1):
Structure (SMILES),inhibition
C[N+]1(C)CCCC(OC(=O)C(O)(c2ccccc2)c2ccccc2)C1.[Br-] (stereo not shown),-14.4%
CC[C@@H]1C(=O)OC[C@@H]1Cc1cncn1C.Cl,-15.4%
C[C@H](N[C@@H](CCc1ccccc1)C(=O)O)C(=O)N1CCC[C@H]1C(=O)O,-0.246%
CN1[C@@H](CC(=O)c2ccccc2)CCC[C@H]1C[C@H](O)c1ccccc1.Cl,-12.9%
CN1CCC(=C2c3ccccc3CCc3sccc32)CC1.O=C(O)/C=C\C(=O)O,-10%
